Results pooled from the literature.
Every numbered part comes from another study and shows a few of its results, in no order.
Sequence of UniProt Q9WVH4 (31-263, looked up): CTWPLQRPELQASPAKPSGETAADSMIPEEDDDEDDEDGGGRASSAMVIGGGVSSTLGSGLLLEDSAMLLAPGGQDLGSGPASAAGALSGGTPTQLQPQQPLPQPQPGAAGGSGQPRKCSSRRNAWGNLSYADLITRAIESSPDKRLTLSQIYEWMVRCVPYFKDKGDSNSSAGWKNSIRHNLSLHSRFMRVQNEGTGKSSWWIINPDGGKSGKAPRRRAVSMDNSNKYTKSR
Sequence of UniProt Q14863 (311-611, looked up): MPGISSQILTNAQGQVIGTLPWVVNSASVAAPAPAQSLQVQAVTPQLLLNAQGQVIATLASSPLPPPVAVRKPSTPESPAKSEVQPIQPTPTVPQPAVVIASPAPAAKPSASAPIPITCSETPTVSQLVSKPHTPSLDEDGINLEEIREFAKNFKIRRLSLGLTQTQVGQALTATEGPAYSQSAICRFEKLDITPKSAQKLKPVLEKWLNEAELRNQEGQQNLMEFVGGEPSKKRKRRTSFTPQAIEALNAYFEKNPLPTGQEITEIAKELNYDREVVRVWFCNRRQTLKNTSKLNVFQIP
Sequence of UniProt Q9H116 (whole entry, looked up): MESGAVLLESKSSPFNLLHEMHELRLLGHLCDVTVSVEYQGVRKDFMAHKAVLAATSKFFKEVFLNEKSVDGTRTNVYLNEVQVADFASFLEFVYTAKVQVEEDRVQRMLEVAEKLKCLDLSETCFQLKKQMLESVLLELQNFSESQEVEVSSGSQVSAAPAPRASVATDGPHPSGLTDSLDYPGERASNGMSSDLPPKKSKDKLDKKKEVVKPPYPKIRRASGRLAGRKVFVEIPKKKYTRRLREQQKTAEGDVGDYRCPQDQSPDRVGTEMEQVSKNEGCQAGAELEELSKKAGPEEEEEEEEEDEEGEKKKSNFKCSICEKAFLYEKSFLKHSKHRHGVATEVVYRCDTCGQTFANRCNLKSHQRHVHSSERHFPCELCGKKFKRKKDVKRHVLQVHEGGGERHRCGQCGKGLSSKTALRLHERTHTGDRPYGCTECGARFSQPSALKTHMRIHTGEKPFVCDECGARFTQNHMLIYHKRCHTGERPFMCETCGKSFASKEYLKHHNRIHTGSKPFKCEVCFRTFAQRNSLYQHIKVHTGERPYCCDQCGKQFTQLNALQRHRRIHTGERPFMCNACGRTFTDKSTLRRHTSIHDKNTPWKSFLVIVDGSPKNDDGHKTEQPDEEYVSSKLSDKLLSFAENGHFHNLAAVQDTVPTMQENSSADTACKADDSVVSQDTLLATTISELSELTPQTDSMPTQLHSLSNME
Sequence of UniProt P14921 (whole entry, looked up): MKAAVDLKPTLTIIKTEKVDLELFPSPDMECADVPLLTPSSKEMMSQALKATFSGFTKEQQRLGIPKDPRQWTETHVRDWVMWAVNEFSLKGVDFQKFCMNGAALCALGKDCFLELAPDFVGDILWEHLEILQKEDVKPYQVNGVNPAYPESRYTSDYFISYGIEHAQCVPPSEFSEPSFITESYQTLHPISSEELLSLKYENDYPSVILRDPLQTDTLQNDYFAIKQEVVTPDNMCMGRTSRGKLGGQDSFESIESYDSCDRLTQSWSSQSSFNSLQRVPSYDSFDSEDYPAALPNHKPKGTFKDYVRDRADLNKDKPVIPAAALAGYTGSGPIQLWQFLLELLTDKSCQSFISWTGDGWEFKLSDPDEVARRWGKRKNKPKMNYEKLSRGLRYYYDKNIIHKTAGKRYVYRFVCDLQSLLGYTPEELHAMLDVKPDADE

Set 1 — cell line: HEK-293T/ACE2; concentration: concentration not given; time: 16 (unit not given); relative to: vehicle; quantity: viability
Cc1cccc(C)c1OCC(=O)N[C@@H](Cc1ccccc1)[C@@H](O)C[C@H](Cc1ccccc1)NC(=O)[C@H](C(C)C)N1CCCNC1=O: 108%
NS(=O)(=O)c1cc2c(cc1Cl)NC(C(Cl)Cl)NS2(=O)=O (stereo not shown): 105%
CCCCc1nc(Cl)c(CO)n1Cc1ccc(-c2ccccc2-c2nn[nH]n2)cc1: 99.7%

Set 2 — technique: protein-binding microarray; molecule type: double-stranded DNA, one strand shown; medium: in vitro; concentration: not given; direction: higher = stronger binding; quantity: E-score
Target: Transcriptional repressor CTCF (CTCF, Homo sapiens, UniProt P49711, residues 1-727, full length assumed)
Notes: k-mer, scored over probes, only values ≥0.25
Residues (chain): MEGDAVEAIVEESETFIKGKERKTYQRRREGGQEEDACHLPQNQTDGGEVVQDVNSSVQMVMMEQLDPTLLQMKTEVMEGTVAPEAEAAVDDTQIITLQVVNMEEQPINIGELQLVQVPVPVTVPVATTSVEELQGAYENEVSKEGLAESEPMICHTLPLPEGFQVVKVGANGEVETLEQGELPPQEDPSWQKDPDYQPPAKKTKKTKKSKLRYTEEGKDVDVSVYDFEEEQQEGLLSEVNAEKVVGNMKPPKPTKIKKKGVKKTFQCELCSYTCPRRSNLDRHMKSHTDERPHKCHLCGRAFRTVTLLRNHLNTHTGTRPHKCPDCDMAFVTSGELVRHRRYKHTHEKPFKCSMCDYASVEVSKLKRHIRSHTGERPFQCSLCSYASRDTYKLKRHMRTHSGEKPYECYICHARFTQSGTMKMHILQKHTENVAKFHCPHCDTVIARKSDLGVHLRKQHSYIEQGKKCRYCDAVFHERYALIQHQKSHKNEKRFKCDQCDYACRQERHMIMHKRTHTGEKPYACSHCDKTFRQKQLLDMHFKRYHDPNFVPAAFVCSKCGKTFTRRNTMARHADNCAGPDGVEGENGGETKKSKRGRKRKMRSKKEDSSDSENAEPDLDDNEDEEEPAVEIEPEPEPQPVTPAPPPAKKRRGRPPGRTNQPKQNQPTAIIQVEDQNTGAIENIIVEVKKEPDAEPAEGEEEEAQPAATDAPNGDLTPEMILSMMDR
ATAAATAA: 0.331
AGTTATAT: 0.285
AATGAATG: 0.284
AACAATCC: 0.28
ACTATAGT: 0.29
GAGCGCGC: 0.269
TATAATAA: 0.347
ATACACAA: 0.282

Set 3 — read-out: enzyme activity; mode: inhibitor; concentration: 20 µM; notes: primary screen; quantity: inhibition
Target: Replicase polyprotein 1ab, main protease (rep, Severe acute respiratory syndrome coronavirus 2, UniProt P0DTD1)
O=[N+]([O-])c1ccc(Sc2cccc[n+]2[O-])c2nonc12: 102%
CC(=O)[O][Hg][c]1ccccc1: 100%
COc1cc(N(C)C)cc(CN(C)CCc2ccc([N+](=O)[O-])cc2)c1O: 93.4%
CN(CCOc1ccc(-c2ccc3c(c2)OCO3)cc1C(C)(C)C)CC(=O)O: 109%

Set 4 — read-out: enzyme activity; mode: inhibitor; concentration: 20 µM; quantity: inhibition
Target: Replicase polyprotein 1ab, polymerase (rep, Severe acute respiratory syndrome coronavirus 2, UniProt P0DTD1)
COc1cc(NC(=O)c2cccc(-n3cc(NC(=O)Nc4cccc(C)c4)cn3)c2)cc(OC)c1OC: 0.99%
CCCOC(=O)c1ccccc1: 0.77%
O=C(O)CCCN1C(=O)c2cccc3cccc(c23)C1=O: 3.02%
Cc1ccccc1-n1c(Cn2ncc3c(N)ncnc32)nc2cccc(C)c2c1=O: 3.56%
Nc1nc(-c2nn(Cc3ccccc3F)c3ncccc23)ncc1C1CC1: -1.85%
N#Cc1ccc(N(Cc2ccc(Br)cc2)n2cnnc2)cc1: -0.19%
CN[C@@H]1[C@@H](O[C@H]2O[C@H](CO)[C@@H](N)[C@H](O)[C@H]2O)O[C@H]2C[C@@H](N)[C@@H](O[C@H]3[C@H](O)[C@@H](O)[C@H](N)C[C@@H]3N)O[C@@H]2[C@@H]1O: -14.6%
CC(=O)N(C)c1cccc(-c2ccnc3c(C(=O)c4cccs4)cnn23)c1: 3.34%
CS(=O)(=O)c1ccc(-c2cn3ccccc3n2)cc1: -0.36%
C=C(NC(=O)C(=C)NC(=O)c1csc(C2=N[C@@H]3c4csc(n4)[C@H]4NC(=O)c5csc(n5)[C@H]([C@](C)(O)[C@@H](C)O)NC(=O)[C@H]5CSC(=N5)/C(=C/C)NC(=O)[C@H]([C@@H](C)O)NC(=O)c5csc(n5)[C@]3(CC2)NC(=O)[C@H](C)NC(=O)C(=C)NC(=O)[C@H](C)NC(=O)[C@H]([C@@H](C)CC)N[C@@H]2C=Cc3c([C@H](C)O)cc(nc3[C@H]2O)C(=O)O[C@@H]4C)n1)C(N)=O: -4.29%
Cc1cc(C2CCCCC2)n(O)c(=O)c1: 11.6%
Cc1cc(Cn2nnc3c(-c4ccco4)nc(N)nc32)ccc1N: -12.3%
NC1CCN(c2c(F)cc3c(=O)c(C(=O)O)cn(C4CC4)c3c2Cl)C1 (stereo not shown): -4.29%
O=C(O)c1nc(=O)[nH]c(=O)[nH]1: -1.96%
Nc1nccs1: -5.75%
CCCC(C)C1(CC)C(=O)NC(=O)NC1=O (stereo not shown): 0.99%
COc1cc([C@@H]2c3cc4c(cc3[C@@H](O[C@@H]3O[C@@H]5CO[C@@H](C)O[C@H]5[C@H](O)[C@H]3O)[C@H]3COC(=O)[C@H]23)OCO4)cc(OC)c1O: -4.37%
COCC(=O)O[C@]1(CCN(C)CCCc2nc3ccccc3[nH]2)CCc2cc(F)ccc2[C@@H]1C(C)C: 1.03%
C[C@]12CC[C@@H]3c4ccc(OC(=O)N(CCCl)CCCl)cc4CC[C@H]3[C@@H]1CC[C@@H]2OP(=O)(O)O: 3.88%
O=C(NCCCN1CCC2(CC1)OCc1ccccc12)[C@H]1CCCN1Cc1ccccc1: -0.56%
C=C[C@H]1CN2CC[C@H]1C[C@H]2[C@H](O)c1ccnc2ccccc12: 3.41%
CCC(C/C=C/c1ccccc1)(c1ccccc1)N(C)CC1CC1 (stereo not shown): -1.29%
O=C(O)c1ccc(Nc2ncc3c(n2)-c2ccc(Cl)cc2C(c2c(F)cccc2F)=NC3)cc1: 4.8%
CC(=O)NCCc1c[nH]c2ccccc12: -20%
CC1CNc2c(cccc2S(=O)(=O)N[C@@H](CCCNC(=N)N)C(=O)N2CC[C@@H](C)C[C@@H]2C(=O)O)C1 (stereo partly shown): 2.69%

Set 5 — technique: protein-binding microarray; molecule type: double-stranded DNA, one strand shown; medium: in vitro; concentration: 250 nM; notes: 60-bp whole probe; together with: salmon DNA 0.4 mg/ml; relative to: random background probes; direction: higher = stronger binding; quantity: log fluorescence; constant ends, left off below: GCCTAGCAC … GTCTTGATTCGCTTGACGCTGCTG
Target: Interferon regulatory factor 7, full length, phosphomimetic (IRF7, Homo sapiens, UniProt Q92985, residues 1-503, S101K/S471D/S472D/S475D/S476D/S477D/S483D/S484D/S487D)
Sequence of UniProt Q92985 (whole entry, unmodified, looked up): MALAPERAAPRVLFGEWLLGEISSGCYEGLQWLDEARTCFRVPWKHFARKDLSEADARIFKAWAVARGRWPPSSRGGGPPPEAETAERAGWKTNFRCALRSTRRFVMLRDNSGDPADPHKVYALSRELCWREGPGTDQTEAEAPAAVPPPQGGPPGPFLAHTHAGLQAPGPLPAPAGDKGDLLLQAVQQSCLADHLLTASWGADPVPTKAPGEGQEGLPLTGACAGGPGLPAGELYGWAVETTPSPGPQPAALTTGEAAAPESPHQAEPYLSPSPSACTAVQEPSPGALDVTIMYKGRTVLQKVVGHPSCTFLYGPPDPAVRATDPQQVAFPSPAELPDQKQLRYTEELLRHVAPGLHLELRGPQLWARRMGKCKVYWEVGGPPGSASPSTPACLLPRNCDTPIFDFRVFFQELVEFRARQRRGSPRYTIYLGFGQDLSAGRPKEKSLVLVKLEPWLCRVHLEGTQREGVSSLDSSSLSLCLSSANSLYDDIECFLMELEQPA
GACGATATCGGGCTTCGAGACGTGCTA: -0.524 z-score
GGCGGACTGGGTATCGGGACGTGCTAG: -0.521 z-score
GGTGTTTTCTAAACCATTGTGTGCTAG: -0.0708 z-score
TTAGATTTCGGGTATCGATTGGTGCTA: 2.15 z-score
GACGGTCTCGGTGTCGGGACGTGCTAG: -0.147 z-score
TCAAGTTTTCCTATGTCACTGTGCTAG: 1.54 z-score
TCCTCTTTTTTGTTCCACGCGTGCTAG: 1.4 z-score
TTCTCTAACCTCTCTAATAAAGTGCTA: 0.531 z-score

Mixed results — technique: protein-binding microarray; molecule type: hairpin DNA; medium: in vitro; concentration: not given; relative to: not given; direction: higher = stronger binding
Notes: whole hairpin DNA, median over replicate spots
GAGGCCATCATTAGGTGCCTCCTGGCACCTAATGATGGCCTCACACTCTT (5mC at 9)
median fluorescence (POU domain, class 6, transcription factor 1, POU and homeodomain (POU6F1, Homo sapiens, UniProt Q14863, residues 311-611)): 511 a.u.

GAGGCCAGCCGGAAGTGGCCTCCTGGCCACTTCCGGCTGGCCTCACACTC (5mC at 28)
median fluorescence (Protein C-ets-1, full length (ETS1, Homo sapiens, UniProt P14921, residues 1-441)): 11300 a.u.

GAGGCCATTAGGGTAATGCCTCCTGGCATTACCCTAATGGCCTCACACTC (5mC at 34)
median fluorescence (GDNF-inducible zinc finger protein 1, full length (GZF1, Homo sapiens, UniProt Q9H116, residues 1-711)): 371 a.u.

GAGGCCATGTAGCCAACGCCTCCTGGCGTTGGCTACATGGCCTCACACTC
median fluorescence (FOXO3, forkhead domain (mouse, UniProt Q9WVH4, residues 31-263)): 4360 a.u.

Excerpt of the above (set 4):
O=C(O)c1nc(=O)[nH]c(=O)[nH]1: -1.96%
CC(=O)NCCc1c[nH]c2ccccc12: -20%
Cc1cc(Cn2nnc3c(-c4ccco4)nc(N)nc32)ccc1N: -12.3%
CCC(C/C=C/c1ccccc1)(c1ccccc1)N(C)CC1CC1 (stereo not shown): -1.29%
